Experimental data gathered from unrelated publications.
Numbered parts are unrelated; each lists some results of a single study. Positions count from the first letter of the parent shown.

Series 1 — target: CCNB3, cyclin fold, Cln2 fusion (human); method: yeast growth competition, sequencing; matrix: yeast; notes: strong parent motif; reference: not given; direction: higher = stronger binding
Starting sequence: SCAPER docking peptide (human); SNARRSLNFGGST
Variant | normalised enrichment score
L7P | 0.0556
N8L | 0.333
G11N | 1.46
R4Y | -0.00579
S12C | 1.41
T13E | 1.47
R5N | -0.296
N8F | 1.2
S6A | 1.37
G11A | 1.25
S12W | 1.12
S6L | 0.957
N8T | 0.845
R4M | -0.0082
N2Y | 1.4
L7N | -0.0211
A3W | 0.349
F9H | 0.235
G10M | 0.798
L7F | 0.154
G11S | 1.14
G11V | 1.69
G10V | -0.171
A3M | 0.543
N2M | 0.958

Series 2 — method: protein-binding microarray; form: double-stranded DNA, one strand shown; matrix: in vitro; tested at: 940 nM top; notes: 60-bp whole probe; added: salmon DNA 0.4 mg/ml; reference: random background probes; direction: higher = stronger binding; constant ends, left off below: GCCTAGCAC … GTCTTGATTCGCTTGACGCTGCTG
Target: Interferon regulatory factor 5, full length, phosphomimetic (IRF5, Homo sapiens, UniProt Q13568-2, residues 1-514, S451D/S453D/S456D/S462D)
Strand | fitted relative affinity [z-score]
TCACCTATAGGTTCAACACTGTGCTAG | -0.416
TTAGATATCAGGCTCGATTAGTGCTAG | 0.0171
TTAGAACTGAGTTTCGCTTAGTGCTAG | 4.67
TTAGAACTGGGATTTCGATTAGTGCTA | 0.744
GACGGTTTCGACTAACGGGACGTGCTA | 8.78
TTAGATATCGGTATCGATTAGTGCTAG | 5.06
CTGTCATCATCGTTCCCAGCGTGCTAG | 0.0623
GACGGACTGATTTTCCTGACGTGCTAG | -0.247
TTAGAACTGGGATATCGATTAGTGCTA | -0.359
GACGGTTTCCTTTCCCCGACGTGCTAG | 2.68
AGGAATTTCCCACTTTCAGTGTGCTAG | 0.658
ATAGGTTTCCTTATCCTTTAGTGCTAG | 1.39
GACGATATCAGTATCGACACGTGCTAG | 2.45
GTAGATTTCGGGACTGGATTAGTGCTA | 0.374
CTGCTAGGGCACACAAGTCAGTGCTAG | -0.946
CTGGTTTTACTTTCTATCTCGTGCTAG | 3.15
GACGGTGTCCTTCTCCTGACGTGCTAG | -0.0111
TTAGAACTGAGTTTCGACTAGTGCTAG | 4.42
TTTTTTATCAATCATTTTAGTGTGCTA | 1.09
TTAGACCTCAGACTGGATTAGTGCTAG | -0.323
TTAGTACTGGGGACTGGATTAGTGCTA | 0.309
GAAGGACTGGACTTTCGGGACGTGCTA | 0.176
GACGGTTTCGGTATCGGGTCGTGCTAG | 15.5
TTAGGTTTCCTTCTCCTTCAGTGCTAG | 1.88
TTAGGACTGGGTCTGGGTTAGTGCTAG | -0.53

Series 3 — method: protein binding microarray; form: double-stranded DNA, one strand shown; matrix: in vitro; tested at: not given; reference: not given; direction: higher = stronger binding
Target: Histone acetyltransferase KAT6A, both winged helices, GST fusion (KAT6A, Homo sapiens, UniProt Q92794, residues 1-181)
Notes: 8-mer, flanks averaged, mean of 2 arrays, mostly near background
Construct (chain): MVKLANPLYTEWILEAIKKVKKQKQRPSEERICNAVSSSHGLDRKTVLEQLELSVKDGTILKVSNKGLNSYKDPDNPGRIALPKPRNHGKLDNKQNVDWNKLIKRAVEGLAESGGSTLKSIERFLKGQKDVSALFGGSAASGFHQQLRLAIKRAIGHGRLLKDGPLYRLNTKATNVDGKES
Strand | E-score
ATTGATAA | -0.218
GCAGGTCA | -0.116
CACAGCAA | 0.0627
ACACAAAC | -0.126
AATGTCAA | -0.0797
AGTATCGG | 0.109
ACCGTAGT | 0.187
CTGGCGAC | -0.0191
ACTCGATC | -0.051
CGTCGGCA | 0.309
TCTTTTAA | -0.0593
CCATTGAA | -0.0656
AGATTCAG | -0.0501
ACTGAGCG | 0.133
AGATCCCT | -0.195
CGGTGGCA | 0.0376
CGTATTAG | 0.096
TCCAGAAA | -0.0239

Series 4 — method: RNA Bind-n-Seq; form: RNA; matrix: in vitro; tested at: 365 nM; reference: no-protein control; direction: higher = stronger binding
Target: RNA binding protein fox-1 homolog 2, RRM domain, GST-SBP tag (RBFOX2, Homo sapiens, UniProt O43251-10, residues 100-194)
Notes: natural RNA segment, single round, ends assumed
Residues (chain): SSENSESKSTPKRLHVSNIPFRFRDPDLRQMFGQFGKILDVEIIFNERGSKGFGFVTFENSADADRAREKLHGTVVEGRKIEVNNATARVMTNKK
Strand | RBNS enrichment (R)
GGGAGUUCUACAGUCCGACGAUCUAAAGCAUGACAUAAAAGCCCAAUUCAGAUCCUACUAAUAAAACAAGCUCCAAUGUAUUAUGGAAACAUGUGCUUUUACGCCUCCAAUAAAACUAUGUUAUCGAUGGGCUUGGAAUUCUCGGGUGCCAA | 5.33
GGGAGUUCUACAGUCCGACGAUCAAAUCGUAUGAUUCACCUCAUCUUUAAUAUGCAUUGAAAUAGGUAAUACUAGAUGCAAGUGUUUCCAAAGCAAAAAAGGUGCAAUUUUAAAGAAUACAUAGCCAAAGCAAUGGAAUUCUCGGGUGCCAA | 0.314
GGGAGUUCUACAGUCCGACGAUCAUGUCAAGGUCAGCAGUGUUACUUUGAAUGUAAACUGGUAUAAUAGGUAGUUUUCUAUAGUAACUUGAUUAAUUUAGUCUUAAUCCAUUUGAAACUCUCUCUUCCUUUCUUGGAAUUCUCGGGUGCCAA | 0.363
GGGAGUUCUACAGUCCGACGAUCGCAUAUACCUGAAGGUUAACACUCAGGAUACACAAACCUCUACAGACCUUAGAAUCCCAUCUCUAUUUUCCCAACUGACUGUGACAGGCAUGAGGCACUGUCACUUGCUUUGGAAUUCUCGGGUGCCAA | 0.649
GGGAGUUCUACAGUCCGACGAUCUGUGGUUUCCAGAUGAGGGUCUGGGUCCCGGAAGCUUGUGUUGAGAGCUCAGUGGACCCACCCCGCUUGCUGAACCCUCACAGUUCUUGGGGUUGUCCAGCCUGGACUUGUGGAAUUCUCGGGUGCCAA | 0.365
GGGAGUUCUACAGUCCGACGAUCAAACAACUACAUUUUAAAAACUGACUUAAUGCUCUUCAAAAUAAAACAUCACCUAUUUAAUGUUUUUAAUCACAUUUUGUAUGGAGUUAAAUAAAGUACAGUGCUUUUGUUGGAAUUCUCGGGUGCCAA | 0.727
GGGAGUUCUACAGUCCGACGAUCACUUAUACUAUUAAAAUUGUUGCGAUGUCACUUAGCUUGACUUUAAAGUUGGCUGGACUGUUAUACUAUGAAUAUACUACGAAUUUGUAAACUAUCAUUAUAAAUUGAAGUGGAAUUCUCGGGUGCCAA | 0.405
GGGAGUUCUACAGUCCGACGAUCUAAGCUUCUCUAGUGAGGCAUUCUGAGCAGUGGUGAUCACAUGCCAGAUCGCCCUGCCUAUCCACAAAGUAGAUGACCAAUGCACGCUCCUCAAACAUCUUUGGAGGAACUGGAAUUCUCGGGUGCCAA | 6.41
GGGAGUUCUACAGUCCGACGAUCCACACCGGGUUGUAUGGCGUCAGCAGGUGUGAGCUGUCCCUUGCUUCUCUUGUCACACAGUGCCCCUUCCCCACGUGUCCUGUGGCUCCAGCCAUUACAGAGUGAAGGUGUGGAAUUCUCGGGUGCCAA | 0.589
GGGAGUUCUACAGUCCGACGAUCCUUCUUUUUUCCCUUUUGUUUCUUGUCACCAAGAAGUUAUCACACUUAUACUUAUUCUAUAAGGCCAAAGCCUUAUCUAGAAAGAUCAUGAAGAGUUUGGAUAUUUUUAAUGGAAUUCUCGGGUGCCAA | 0.524
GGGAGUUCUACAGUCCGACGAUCACCAUUCUCUCCUCAUCAGAUUUCUGUUCUUUAUUUGACUUCAUUGACAUAUACCCUGGUGACUAUAACCAGUGAACUGUUCAGAGUCAGUCUUUUCGGCAAGAACUUCAUGGAAUUCUCGGGUGCCAA | 0.327
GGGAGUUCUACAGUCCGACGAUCCACGUGGCUCUUGGACCUUGAUUUAGAAAGGCUCAUACUCCCAGGAAAACACCCAUUUUGAUACAAUGUAAACGUUCGUGUUCACCCUUGGAUACAUGUUGAAAGAGCUCUGGAAUUCUCGGGUGCCAA | 0.493

Some of these lines once more (series 2):
Strand | fitted relative affinity [z-score]
GACGGTGTCCTTCTCCTGACGTGCTAG | -0.0111
TTAGAACTGAGTTTCGACTAGTGCTAG | 4.42
TTTTTTATCAATCATTTTAGTGTGCTA | 1.09
TTAGACCTCAGACTGGATTAGTGCTAG | -0.323
TTAGTACTGGGGACTGGATTAGTGCTA | 0.309
GAAGGACTGGACTTTCGGGACGTGCTA | 0.176
GACGGTTTCGGTATCGGGTCGTGCTAG | 15.5
TTAGGTTTCCTTCTCCTTCAGTGCTAG | 1.88
